Experimental data from different studies.
Protocols differ between the studies behind these lines. ± marks the error that the study gave.
ALB: Albumin (ALB, Bos taurus, UniProt P02769)
Chain of UniProt P02769 (whole entry, looked up): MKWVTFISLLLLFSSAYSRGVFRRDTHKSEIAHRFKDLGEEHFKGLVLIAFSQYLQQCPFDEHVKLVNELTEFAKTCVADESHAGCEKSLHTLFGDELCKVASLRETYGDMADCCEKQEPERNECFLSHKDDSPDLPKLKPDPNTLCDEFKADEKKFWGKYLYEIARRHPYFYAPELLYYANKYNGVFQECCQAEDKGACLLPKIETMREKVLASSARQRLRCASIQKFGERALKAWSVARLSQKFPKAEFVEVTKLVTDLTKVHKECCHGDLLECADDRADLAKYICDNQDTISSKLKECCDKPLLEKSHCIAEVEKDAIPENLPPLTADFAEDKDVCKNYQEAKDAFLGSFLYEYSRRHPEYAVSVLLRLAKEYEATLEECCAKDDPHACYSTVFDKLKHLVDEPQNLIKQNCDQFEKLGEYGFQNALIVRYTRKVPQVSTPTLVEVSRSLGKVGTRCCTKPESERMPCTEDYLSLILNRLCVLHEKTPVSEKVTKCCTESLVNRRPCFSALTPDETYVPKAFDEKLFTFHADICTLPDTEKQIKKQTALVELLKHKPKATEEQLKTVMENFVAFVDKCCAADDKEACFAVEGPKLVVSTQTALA
Chain of UniProt P11387 (whole entry, looked up): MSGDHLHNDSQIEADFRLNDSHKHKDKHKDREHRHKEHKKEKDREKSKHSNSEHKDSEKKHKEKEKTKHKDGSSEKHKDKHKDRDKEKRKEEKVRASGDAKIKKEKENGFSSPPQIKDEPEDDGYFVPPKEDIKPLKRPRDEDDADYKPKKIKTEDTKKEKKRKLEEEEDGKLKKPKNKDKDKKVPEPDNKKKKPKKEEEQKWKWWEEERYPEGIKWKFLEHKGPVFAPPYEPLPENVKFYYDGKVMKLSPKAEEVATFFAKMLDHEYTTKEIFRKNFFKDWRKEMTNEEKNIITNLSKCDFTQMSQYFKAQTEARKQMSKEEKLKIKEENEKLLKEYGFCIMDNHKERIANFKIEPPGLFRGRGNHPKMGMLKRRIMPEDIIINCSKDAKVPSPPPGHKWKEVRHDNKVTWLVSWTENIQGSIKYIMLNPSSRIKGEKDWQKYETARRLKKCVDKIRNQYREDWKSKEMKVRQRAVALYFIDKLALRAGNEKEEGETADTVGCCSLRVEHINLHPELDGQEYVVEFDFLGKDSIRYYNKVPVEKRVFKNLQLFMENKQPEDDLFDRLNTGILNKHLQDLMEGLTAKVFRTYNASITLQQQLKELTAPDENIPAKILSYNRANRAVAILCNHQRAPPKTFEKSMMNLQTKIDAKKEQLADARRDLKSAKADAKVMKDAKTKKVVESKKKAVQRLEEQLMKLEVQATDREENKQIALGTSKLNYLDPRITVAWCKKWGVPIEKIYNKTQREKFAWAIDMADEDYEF

With `F[P-](F)(F)(F)(F)F.OC(Cn1cncn1)(Cn1cc(-[c-]2cccc2)nn1)c1ccc(F)cc1F.[Co+3].c1cc[cH-]c1` (racemic) the inhibition was 14% (Brugia pahangi; motility, Worminator; adult female; 50 µM, 2 d).
Under “fluorescence quantum yield”, `CN1CCN(c2ccc3[nH]c(-c4ccc5[nH]c(-c6ccc(OCCCCNC(=O)c7cccc8c7C(=O)OC87c8ccc(N(C)C)cc8C(C)(C)c8cc(N(C)C)ccc87)cc6)nc5c4)nc3c2)CC1` is recorded as 0.21 ± 0.006 (ALB; PBS; 1 µM, 1 h, with: 25 mg/mL albumin).
The half-life of `C[C@H](Nc1ncnc(N)c1C#N)c1c(-c2ccccc2)[nH]c2c(Cl)cccc2c1=O` is reported as 2.6 ± 0.6 h (CB17 SCID mice, xenograft, plasma; oral, 100 mg/kg once daily, day 14).
`CCCCCCCCCCCCCCCC(=O)N[C@@H](CCC(=O)NCCOCCOCCC(=O)NCCOCCOCCC(=O)NCCCC[C@H](NC(=O)[C@H](CC(=O)O)NC(=O)[C@H](CC(C)C)NC(=O)[C@H](Cc1ccc(O)cc1)NC(=O)[C@H](CCCCN)NC(=O)[C@H](CO)NC(=O)[C@H](Cc1ccc(O)cc1)NC(=O)[C@H](CC(=O)O)NC(=O)[C@H](CO)NC(=O)[C@@H](NC(=O)[C@H](Cc1ccccc1)NC(=O)[C@@H](NC(=O)CNC(=O)[C@H](CCC(N)=O)NC(=O)[C@@H](CO)NC(=O)[C@@H](N)Cc1c[nH]cn1)[C@@H](C)O)[C@@H](C)O)C(=O)N[C@@H](CCCNC(=N)N)C(=O)N[C@@H](CCCNC(=N)N)C(=O)N[C@@H](C)C(=O)N[C@@H](CCC(N)=O)C(=O)N[C@@H](CC(=O)O)C(=O)N[C@@H](Cc1ccccc1)C(=O)N[C@H](C(=O)N[C@@H](CCC(N)=O)C(=O)N[C@@H](Cc1c[nH]c2ccccc12)C(=O)N[C@@H](CC(C)C)C(=O)N[C@@H](CC(C)C)C(=O)N[C@@H](CC(N)=O)C(=O)N[C@H](C(=O)NCC(=O)NCC(=O)N1CCC[C@H]1C(=O)N[C@@H](CO)C(=O)N[C@@H](CO)C(=O)NCC(=O)N[C@@H](C)C(=O)N1CCC[C@H]1C(=O)N1CCC[C@H]1C(=O)N1CCC[C@H]1C(=O)N[C@@H](CO)C(N)=O)[C@@H](C)O)C(C)C)C(=O)O` gave an AUC(0-t) of 136 ng·h/mL (rhesus monkey, male, plasma; subcutaneous, 20 µg/kg, day 1, toxicokinetics, mean).
For `CC(=O)NCCN(CC(=O)NCCN(CC(=O)NCCN(CC(=O)NCCC(N)=O)C(=O)[C@@H](N)CCCNC(=N)N)C(=O)[C@@H](N)CCCCN)C(=O)[C@@H](N)Cc1ccccc1`, “binding enthalpy ΔH°” read -15.9 ± 0.502 kcal/mol (HIV-1 TAR RNA; concentration not given, 25 °C).
`CN1CCN(c2ccc3[nH]c(-c4ccc5[nH]c(-c6ccc(OCCCCNC(=O)c7ccc8c(c7)C(=O)OC87c8ccc(N(C)C)cc8C(C)(C)c8cc(N(C)C)ccc87)cc6)nc5c4)nc3c2)CC1`: “fluorescence quantum yield” 0.106 ± 0.003 (ALB; PBS; 1 µM, 1 h, with: 25 mg/mL albumin).
`C1=[N+]2CCC[N+]3=Cc4ccc5[n]4[Au-]23[n]2c1ccc2-c1nc2ccccc2nc1-5.F[P-](F)(F)(F)(F)F` — result for “switch to catalytic inhibition concentration”: 1 to 10 µM (DNA topoisomerase 1 (TOP1, Homo sapiens, UniProt P11387)).
For `CC(=O)NCCN(CCC(=O)NCCN(CCC(=O)NCCN(CCC(=O)NCCC(N)=O)C(=O)[C@@H](N)Cc1ccccc1)C(=O)[C@@H](N)Cc1ccccc1)C(=O)[C@@H](N)CCCNC(=N)N`, “binding enthalpy ΔH°” read -8.53 ± 0.263 kcal/mol (HIV-1 TAR RNA; concentration not given, 25 °C).

Excerpt of the above:
The half-life of `C[C@H](Nc1ncnc(N)c1C#N)c1c(-c2ccccc2)[nH]c2c(Cl)cccc2c1=O` is reported as 2.6 ± 0.6 h (CB17 SCID mice, xenograft, plasma; oral, 100 mg/kg once daily, day 14).
